Measurements from different studies.
Each line is one published result; not all experiments were run side by side.
Organism: Pseudomonas aeruginosa

SMILES | test | test system | conditions | how to read | MIC
CC[C@H](C)[C@H](N)C(=O)N[C@@H](CC(C)C)C(=O)NCC(=O)N[C@H](CCCCN)C(=O)N[C@H](C(=O)N[C@@H](Cc1c[nH]c2ccccc12)C(=O)N[C@@H](CCCCN)C(=O)NCC(=O)N[C@H](C(=O)N[C@@H](CCCCN)C(=O)N[C@@H](CC(=O)O)C(=O)N[C@H](C(=O)N[C@@H](CC(C)C)C(N)=O)[C@@H](C)CC)[C@@H](C)CC)[C@@H](C)CC | broth microdilution | ATCC BAA-427, Mueller-Hinton broth | 16 h, 37 °C | – | 50 µM
CC1(C)SC2C(NC(=O)C(NC(=O)C3=C(O)C(Cc4ccsc4)NC3=O)c3ccccc3)C(=O)N2C1C(=O)O (stereo not drawn) | – | pvdA mutant | – | – | 50 µg/mL
CC[C@H](C)[C@H](NC(=O)CNC(=O)[C@H](CC(=O)O)NC(=O)[C@H](CCCNC(=N)N)NC(=O)[C@@H](NC(=O)[C@H](CC(N)=O)NC(=O)[C@H](CCCNC(=N)N)NC(=O)CNC(=O)[C@@H](NC(=O)[C@H](CCCCN)NC(=O)[C@H](CCCNC(=N)N)NC(=O)[C@@H](NC(=O)[C@H](CCCCN)NC(=O)[C@H](CCCCN)NC(=O)[C@H](Cc1ccccc1)NC(=O)[C@@H](NC(=O)[C@H](CCCCN)NC(=O)[C@H](Cc1c[nH]c2ccccc12)NC(=O)[C@@H](N)CCCNC(=N)N)[C@@H](C)CC)[C@@H](C)CC)C(C)C)C(C)C)C(=O)N[C@H](C(=O)N[C@@H](CCCCN)C(=O)N[C@@H](C)C(=O)NCC(=O)N1CCC[C@H]1C(=O)N[C@@H](C)C(=O)N[C@H](C(=O)N[C@@H](C)C(=O)N[C@H](C(=O)N[C@H](C(=O)NCC(=O)N[C@@H](CCC(N)=O)C(=O)N[C@@H](C)C(=O)N[C@@H](C)C(=O)N[C@H](C(=O)N[C@H](C(=O)N[C@H](C(=O)N[C@@H](CCCCN)C(N)=O)C(C)C)C(C)C)[C@@H](C)O)C(C)C)C(C)C)C(C)C)[C@@H](C)CC | – | KCCM 11328, Mueller-Hinton broth | 16 h, 37 °C | growth inhibition over 99% | 2 µM
CC(C)CC1NC(=O)C(C(=O)NC(C(=O)NC2C(=O)N3C2SC(C)(C)C3C(=O)O)c2ccccc2)=C1O (stereo not drawn) | – | fptA mutant | – | – | 25 µg/mL
CC[C@H](C)[C@H](NC(=O)[C@H](Cc1c[nH]c2ccccc12)NC(=O)[C@@H](NC(=O)[C@H](Cc1ccccc1)NC(=O)[C@@H]1CCCN1C(=O)[C@@H](NC(=O)[C@H](C)N)[C@@H](C)CC)[C@@H](C)CC)C(=O)N[C@@H](Cc1ccccc1)C(=O)N[C@@H](CCCNC(=N)N)C(=O)N[C@@H](CC(C)C)C(=O)N[C@@H](CC(C)C)C(=O)N[C@@H](CCCNC(=N)N)C(=O)N[C@@H](CCCCN)C(=O)NCC(N)=O | broth microdilution | PAO1 | 18 h, 37 °C | – | 15 µM
CC[C@H](C)[C@H](NC(=O)[C@H](CCCCN)NC(=O)[C@H](CCCCN)NC(=O)[C@H](Cc1ccccc1)NC(=O)[C@@H](NC(=O)[C@@H](NC(=O)[C@H](CCCNC(=N)N)NC(=O)[C@H](Cc1ccccc1)NC(=O)[C@@H](NC(=O)[C@H](CCCCN)NC(=O)[C@H](CCCCN)NC(=O)[C@@H](N)CCSC)[C@@H](C)CC)C(C)C)[C@@H](C)CC)C(=O)N[C@@H](CC(C)C)C(=O)N[C@@H](CCCCN)C(=O)N[C@@H](CCCNC(=N)N)C(=O)N[C@@H](CC(C)C)C(=O)N[C@H](C(=O)N[C@H](C(=O)O)C(C)C)[C@@H](C)CC | – | CMCC 10104 | 16 to 18 h | – | 32 µg/mL
CC[C@H](C)[C@H](NC(=O)[C@H](CC(C)C)NC(=O)[C@H](CCCCN)NC(=O)[C@@H](NC(=O)[C@H](C)NC(=O)[C@H](CCC(=O)O)NC(=O)[C@H](Cc1c[nH]cn1)NC(=O)[C@@H](NC(=O)[C@H](CCCCN)NC(=O)[C@H](CCC(N)=O)NC(=O)[C@H](Cc1ccccc1)NC(=O)[C@@H](NC(=O)[C@H](CCCCN)NC(=O)[C@@H](N)CCCCN)C(C)C)[C@@H](C)CC)[C@@H](C)CC)C(N)=O | broth microdilution | 4007 resistant | 18 h, 37 °C | – | 32 µM
CC[C@H](C)[C@H](NC(=O)[C@H](CCCCN)NC(=O)[C@H](CCCCN)NC(=O)[C@H](CCCCN)NC(=O)[C@H](CCCCN)NC(=O)[C@H](CCCCN)NC(=O)[C@@H](N)CCCCN)C(=O)N[C@@H](CO)C(=O)N[C@@H](Cc1ccccc1)C(=O)N[C@@H](CC(C)C)C(=O)NCC(=O)N[C@@H](CO)C(=O)N[C@@H](CCCCN)C(=O)N[C@H](C(=O)N[C@H](C(=O)N[C@H](C(=O)N[C@@H](CC(C)C)C(=O)N[C@@H](CC(C)C)C(=O)N[C@@H](CCCCN)C(=O)N[C@@H](CCCNC(=N)N)C(N)=O)C(C)C)C(C)C)C(C)C | broth microdilution | ATCC 27853 | highest value reported | – | 16 µM
CC1(C)S[C@@H]2[C@H](NC(=O)[C@H](N)c3ccccc3)C(=O)N2[C@H]1C(=O)O | – | pqsE mutant | – | – | 200 µg/mL
CC[C@@H](C)[C@@H](N)C(=O)N[C@@H](C(=O)N[C@H](Cc1ccc(O)cc1)C(=O)N[C@@H](C(=O)N[C@H](CCN)C(=O)N[C@H](CC(C)C)C(=O)N[C@H](CO)C(=O)N[C@H](CCN)C(=O)N[C@@H](C(=O)N[C@H](CCN)C(=O)N[C@H](Cc1c[nH]cn1)C(=O)N[C@H](CCN)C(=O)N[C@H](C)C(=O)N[C@H](CCN)C(=O)N[C@H](CCN)C(N)=O)[C@H](C)CC)[C@H](C)CC)[C@H](C)CC | broth microdilution | CDC 0231, Mueller-Hinton broth | – | – | 8 µg/mL
CN1C(=O)Cc2ccc(F)c(CCNCC[C@H]3CN(c4ccc5c(n4)NC(=O)CO5)C(=O)O3)c21 | – | ATCC 27853 | – | – | 0.5 µg/mL
O=[N+]([O-])[O-].O=[N+]([O-])[O-].O=[N+]([O-])[O-].[Ga+3] | – | PAO1 | – | – | 7.8 µM
CC[C@H](C)[C@H](NC(=O)[C@H](CC(C)C)NC(=O)[C@H](CCCNC(=N)N)NC(=O)[C@@H](N)CCCNC(=N)N)C(=O)N[C@@H](CCCNC(=N)N)C(=O)N[C@H](C(=O)N[C@@H](CC(C)C)C(=O)N[C@H](C(=O)NCC(=O)N1CCC[C@H]1C(=O)N[C@H](C(=O)N[C@H](C(=O)N[C@@H](Cc1ccc(O)cc1)C(=O)N[C@@H](CC(C)C)C(=O)N[C@@H](Cc1ccc(O)cc1)C(=O)N[C@@H](Cc1ccccc1)C(=O)N[C@@H](CCCCN)C(=O)N[C@@H](CC(C)C)C(=O)N[C@@H](CCC(N)=O)C(=O)N[C@@H](CC(C)C)C(=O)N[C@@H](CC(C)C)C(=O)N[C@@H](CCCCN)C(=O)N[C@@H](CCCCN)C(N)=O)[C@@H](C)CC)[C@@H](C)CC)[C@@H](C)O)[C@@H](C)O | – | KCTC 1637, Mueller-Hinton broth | 24 h | – | 64 µM
CC(C)C1NC(=O)C(C(=O)NC(C(=O)NC2C(=O)N3C2SC(C)(C)C3C(=O)O)c2ccccc2)=C1O (stereo not drawn) | – | pqsE mutant | – | – | 100 µg/mL
CC(C)C[C@H](NC(=O)[C@H](Cc1c[nH]c2ccccc12)NC(=O)[C@H](CC(C)C)NC(=O)[C@@H](NC(=O)[C@H](CC(C)C)NC(=O)[C@H](CCCNC(=N)N)NC(=O)[C@@H](N)CCCNC(=N)N)[C@@H](C)O)C(=O)N[C@H](C(=O)N[C@@H](CC(C)C)C(=O)N[C@@H](CCCNC(=N)N)C(=O)N[C@@H](CCCNC(=N)N)C(N)=O)[C@@H](C)O | broth microdilution | 27853, Mueller-Hinton broth | 24 h, 37 °C, lowest concentration, 95% inhibition, with: BSA | – | 4 µM
CC(C)(C)OCC1NC(=O)C(C(=O)NC(C(=O)NC2C(=O)N3C2SC(C)(C)C3C(=O)O)c2ccccc2)=C1O (stereo not drawn) | broth microdilution | TonB-dependent receptor mutant | PA two-allele library | – | 25 µg/mL
CC[C@H](C)[C@H](NC(=O)[C@H](CC(C)C)NC(=O)[C@H](CCCNC(=N)N)NC(=O)[C@@H](N)CCCNC(=N)N)C(=O)N[C@@H](CC(C)C)C(=O)N[C@H](C(=O)N[C@@H](CCCCN)C(=O)N[C@H](C(=O)NCC(=O)N1CCC[C@H]1C(=O)N[C@H](C(=O)N[C@H](C(=O)N[C@@H](Cc1ccc(O)cc1)C(=O)N[C@@H](CCCCN)C(=O)N[C@@H](Cc1ccc(O)cc1)C(=O)N[C@@H](Cc1ccccc1)C(=O)N[C@@H](CCCCN)C(=O)N[C@@H](CCCCN)C(=O)N[C@@H](CCC(N)=O)C(=O)N[C@@H](CC(C)C)C(=O)N[C@@H](CCCCN)C(=O)N[C@@H](CCCCN)C(=O)N[C@@H](CC(C)C)C(N)=O)[C@@H](C)CC)[C@@H](C)CC)[C@@H](C)O)[C@@H](C)O | – | KCTC 1637, Mueller-Hinton broth | 24 h | – | 4 µM
CC(C)(C)Oc1ccc(CC2NC(=O)C(C(=O)NC(C(=O)NC3C(=O)N4C3SC(C)(C)C4C(=O)O)c3ccccc3)=C2O)cc1 (stereo not drawn) | – | pvdS mutant | – | – | 12.5 µg/mL
CC(C)[C@H](NC(=O)[C@H](C)N)C(=O)N[C@@H](C)C(=O)N[C@H](C(=O)N[C@H](C(=O)NCC(=O)N[C@@H](CCC(N)=O)C(=O)N[C@@H](C)C(=O)N[C@@H](C)C(=O)N[C@H](C(=O)N[C@H](C(=O)N[C@H](C(=O)N[C@@H](CCCCN)C(N)=O)C(C)C)C(C)C)[C@@H](C)O)C(C)C)C(C)C | – | KCCM 11328, Mueller-Hinton broth | 16 h, 37 °C | growth inhibition over 99% | > 64 µM
CC1NC(=O)C(C(=O)NC(C(=O)NC2C(=O)N3C2SC(C)(C)C3C(=O)O)c2ccccc2)=C1O (stereo not drawn) | broth microdilution | TonB-dependent receptor mutant | PA two-allele library | – | 25 µg/mL
CC[C@H](C)[C@H](NC(=O)CN)C(=O)NCC(=O)N[C@@H](CCCCN)C(=O)N[C@@H](Cc1ccccc1)C(=O)N[C@@H](CC(C)C)C(=O)N[C@@H](CCCCN)C(=O)N[C@@H](CCCCN)C(=O)N[C@@H](C)C(=O)N[C@@H](CCCCN)C(=O)N[C@@H](CCCCN)C(=O)N[C@@H](Cc1ccccc1)C(=O)NCC(=O)N[C@@H](CCCCN)C(=O)N[C@@H](C)C(=O)N[C@@H](Cc1ccccc1)C(=O)N[C@H](C(=O)N[C@@H](CCCCN)C(=O)N[C@H](C(=O)N[C@@H](CC(C)C)C(=O)N[C@@H](CCCCN)C(=O)N[C@@H](CCCCN)C(N)=O)[C@@H](C)CC)C(C)C | broth dilution | ATCC 27853 | – | – | 25 µM

Some of these lines once more:
SMILES | test | test system | conditions | how to read | MIC
CC[C@H](C)[C@H](NC(=O)[C@H](CC(C)C)NC(=O)[C@H](CCCNC(=N)N)NC(=O)[C@@H](N)CCCNC(=N)N)C(=O)N[C@@H](CC(C)C)C(=O)N[C@H](C(=O)N[C@@H](CCCCN)C(=O)N[C@H](C(=O)NCC(=O)N1CCC[C@H]1C(=O)N[C@H](C(=O)N[C@H](C(=O)N[C@@H](Cc1ccc(O)cc1)C(=O)N[C@@H](CCCCN)C(=O)N[C@@H](Cc1ccc(O)cc1)C(=O)N[C@@H](Cc1ccccc1)C(=O)N[C@@H](CCCCN)C(=O)N[C@@H](CCCCN)C(=O)N[C@@H](CCC(N)=O)C(=O)N[C@@H](CC(C)C)C(=O)N[C@@H](CCCCN)C(=O)N[C@@H](CCCCN)C(=O)N[C@@H](CC(C)C)C(N)=O)[C@@H](C)CC)[C@@H](C)CC)[C@@H](C)O)[C@@H](C)O | – | KCTC 1637, Mueller-Hinton broth | 24 h | – | 4 µM
CC(C)(C)Oc1ccc(CC2NC(=O)C(C(=O)NC(C(=O)NC3C(=O)N4C3SC(C)(C)C4C(=O)O)c3ccccc3)=C2O)cc1 (stereo not drawn) | – | pvdS mutant | – | – | 12.5 µg/mL
CC(C)[C@H](NC(=O)[C@H](C)N)C(=O)N[C@@H](C)C(=O)N[C@H](C(=O)N[C@H](C(=O)NCC(=O)N[C@@H](CCC(N)=O)C(=O)N[C@@H](C)C(=O)N[C@@H](C)C(=O)N[C@H](C(=O)N[C@H](C(=O)N[C@H](C(=O)N[C@@H](CCCCN)C(N)=O)C(C)C)C(C)C)[C@@H](C)O)C(C)C)C(C)C | – | KCCM 11328, Mueller-Hinton broth | 16 h, 37 °C | growth inhibition over 99% | > 64 µM
